Results pooled from the literature.
Lines come from different studies, so protocols differ.
Target: Tau-tubulin kinase 1 (TTBK1, Homo sapiens, UniProt Q5TCY1)
UniProt Q5TCY1, sequence (whole entry, looked up): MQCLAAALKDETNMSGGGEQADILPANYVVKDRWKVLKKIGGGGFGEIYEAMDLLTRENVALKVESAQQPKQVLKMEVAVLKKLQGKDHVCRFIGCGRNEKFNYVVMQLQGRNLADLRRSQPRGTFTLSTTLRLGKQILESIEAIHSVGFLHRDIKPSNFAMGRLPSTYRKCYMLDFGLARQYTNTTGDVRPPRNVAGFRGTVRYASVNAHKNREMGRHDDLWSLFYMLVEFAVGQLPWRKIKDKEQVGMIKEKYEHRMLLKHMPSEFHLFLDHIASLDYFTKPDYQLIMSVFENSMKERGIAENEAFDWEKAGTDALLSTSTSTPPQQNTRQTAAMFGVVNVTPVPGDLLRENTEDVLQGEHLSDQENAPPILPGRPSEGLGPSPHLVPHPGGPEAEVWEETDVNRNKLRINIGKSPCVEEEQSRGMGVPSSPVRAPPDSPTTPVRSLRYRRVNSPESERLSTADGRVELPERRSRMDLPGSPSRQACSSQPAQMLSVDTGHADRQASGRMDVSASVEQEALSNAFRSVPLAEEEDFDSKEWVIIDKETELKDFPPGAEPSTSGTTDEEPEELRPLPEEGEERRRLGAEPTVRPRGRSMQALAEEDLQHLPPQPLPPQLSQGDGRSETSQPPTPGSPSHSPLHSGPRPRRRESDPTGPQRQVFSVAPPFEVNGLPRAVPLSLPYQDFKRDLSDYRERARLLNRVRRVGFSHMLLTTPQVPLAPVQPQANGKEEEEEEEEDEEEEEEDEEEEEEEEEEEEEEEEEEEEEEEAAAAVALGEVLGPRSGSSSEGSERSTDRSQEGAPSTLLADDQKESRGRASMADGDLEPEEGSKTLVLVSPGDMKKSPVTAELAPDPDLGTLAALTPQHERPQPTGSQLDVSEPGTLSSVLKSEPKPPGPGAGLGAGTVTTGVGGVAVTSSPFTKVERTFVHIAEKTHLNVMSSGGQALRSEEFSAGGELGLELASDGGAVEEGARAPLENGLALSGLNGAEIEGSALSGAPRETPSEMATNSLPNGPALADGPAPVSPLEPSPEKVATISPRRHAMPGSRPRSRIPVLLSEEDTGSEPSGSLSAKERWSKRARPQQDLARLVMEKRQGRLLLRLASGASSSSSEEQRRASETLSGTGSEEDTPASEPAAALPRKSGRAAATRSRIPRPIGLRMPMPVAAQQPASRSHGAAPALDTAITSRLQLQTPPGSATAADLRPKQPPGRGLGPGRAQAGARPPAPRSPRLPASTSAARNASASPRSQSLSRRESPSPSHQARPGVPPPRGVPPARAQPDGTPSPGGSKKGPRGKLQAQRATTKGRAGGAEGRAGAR

Structure (SMILES)	read-out	mode	tested at	added	baseline	measurement	result
NC(=O)C[C@H]1CCc2sc3ncnc(O[C@H]4CC[C@H](N5CCOCC5)CC4)c3c21	enzyme activity	inhibitor	10 µM	–	–	inhibition	-2%
CCn1cc(C(=O)O)c(=O)c2c(N)c(F)c(NC3CCCCC3)cc21	kinase activity	–	0.1 µM	ATP at Km	–	inhibition	4.7%
O=C(Cc1ccc(OCc2ccccc2)cc1)NC1(C(=O)O)CCN(C(=O)c2ccc(-c3cccc(Cl)c3)cc2)CC1	enzyme activity	inhibitor	10 µM	–	–	activity vs control	102%
CN1CC[C@@H](COc2cnc(C#N)cc2-c2ccn3nc(NC(=O)C4CC4)cc3c2)C1	enzyme activity	inhibitor	1 µM	–	–	inhibition	-9%
NC(=O)[C@@H](O)C[C@H]1CCc2sc3ncnc(O[C@H]4CC[C@H](N5CCOCC5)CC4)c3c21	enzyme activity	inhibitor	10 µM	–	–	inhibition	-6%
CNC(=O)C[C@H](Cc1ccc(C#N)cc1)NC(=O)c1cc(-c2ccc(CN[C@H](C)c3ccc(C)cc3)o2)ccc1Cl	enzyme activity	inhibitor	1 µM	–	–	activity vs control	105%
Nc1ncc(-c2cc(-c3cnn(CC(F)(F)F)c3)ncc2F)nc1C(=O)NC1CNCC(F)C1 (centres unmarked)	enzyme activity	–	1 µM	–	DMSO control	remaining activity	107%
Cc1nc2c(F)cc(-c3nc(Nc4ccc(CNC(=O)CCCCCCC(=O)NO)cc4)ncc3F)cc2n1C(C)C	enzyme activity	inhibitor	1 µM	–	–	inhibition	8%
